Measurements gathered from unrelated publications.
Protocols differ between the studies behind these lines. Several values in a cell are separate wells, animals, samples, runs or records. ± marks the error that the study gave.
NPY1R: Neuropeptide Y receptor type 1 (NPY1R, Homo sapiens, UniProt P25929)
UniProt P25929, sequence (whole entry, looked up): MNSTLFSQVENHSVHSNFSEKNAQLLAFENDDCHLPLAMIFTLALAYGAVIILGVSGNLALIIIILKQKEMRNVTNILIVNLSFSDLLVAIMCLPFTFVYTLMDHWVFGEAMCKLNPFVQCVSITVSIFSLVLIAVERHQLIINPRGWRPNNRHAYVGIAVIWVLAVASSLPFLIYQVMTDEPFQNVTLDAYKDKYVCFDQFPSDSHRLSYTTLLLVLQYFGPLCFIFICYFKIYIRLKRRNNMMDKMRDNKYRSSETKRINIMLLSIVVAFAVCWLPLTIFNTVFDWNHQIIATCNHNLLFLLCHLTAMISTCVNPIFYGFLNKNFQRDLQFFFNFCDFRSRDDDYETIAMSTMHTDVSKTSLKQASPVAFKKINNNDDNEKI
BIRC2 BIR3: Baculoviral IAP repeat-containing protein 2, BIR3 (BIRC2, Homo sapiens, UniProt Q13490)
UniProt Q13490, sequence (whole entry, looked up): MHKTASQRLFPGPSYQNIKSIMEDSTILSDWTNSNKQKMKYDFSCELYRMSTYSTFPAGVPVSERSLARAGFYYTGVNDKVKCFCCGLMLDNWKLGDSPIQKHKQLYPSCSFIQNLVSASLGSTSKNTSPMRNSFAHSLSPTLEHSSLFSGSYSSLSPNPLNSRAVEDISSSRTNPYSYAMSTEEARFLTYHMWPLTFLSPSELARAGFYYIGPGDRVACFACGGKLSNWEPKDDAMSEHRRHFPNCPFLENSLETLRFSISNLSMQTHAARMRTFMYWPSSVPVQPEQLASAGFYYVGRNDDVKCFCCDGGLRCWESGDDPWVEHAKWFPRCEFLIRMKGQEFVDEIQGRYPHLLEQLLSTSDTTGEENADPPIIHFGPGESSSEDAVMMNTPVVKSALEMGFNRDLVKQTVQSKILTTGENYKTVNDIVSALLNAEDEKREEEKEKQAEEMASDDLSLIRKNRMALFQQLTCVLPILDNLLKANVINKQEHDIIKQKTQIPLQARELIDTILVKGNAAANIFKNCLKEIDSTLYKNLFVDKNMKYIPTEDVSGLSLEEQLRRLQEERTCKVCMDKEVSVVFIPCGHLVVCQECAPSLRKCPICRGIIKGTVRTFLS
Beta-lactamase CTX-M-27: Beta-lactamase CTX-M-27 (Escherichia coli, UniProt Q840M4)
UniProt P35218, sequence (whole entry, looked up): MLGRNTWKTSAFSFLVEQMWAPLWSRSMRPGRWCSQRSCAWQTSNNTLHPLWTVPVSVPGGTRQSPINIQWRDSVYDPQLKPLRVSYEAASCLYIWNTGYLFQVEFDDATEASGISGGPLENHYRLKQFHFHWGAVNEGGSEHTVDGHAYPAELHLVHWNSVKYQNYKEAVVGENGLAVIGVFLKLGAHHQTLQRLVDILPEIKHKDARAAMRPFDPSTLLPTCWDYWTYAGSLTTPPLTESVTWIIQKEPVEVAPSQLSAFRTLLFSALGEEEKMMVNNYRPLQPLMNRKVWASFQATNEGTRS
UniProt P55210, sequence (whole entry, looked up): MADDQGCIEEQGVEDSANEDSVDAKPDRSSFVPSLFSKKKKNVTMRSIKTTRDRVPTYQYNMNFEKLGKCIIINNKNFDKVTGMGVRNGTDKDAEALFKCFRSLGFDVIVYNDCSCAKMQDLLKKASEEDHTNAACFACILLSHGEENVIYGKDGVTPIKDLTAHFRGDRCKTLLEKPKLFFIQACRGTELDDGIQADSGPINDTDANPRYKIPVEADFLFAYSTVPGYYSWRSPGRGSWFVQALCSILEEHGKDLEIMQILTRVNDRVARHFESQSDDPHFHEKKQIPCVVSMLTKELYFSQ
UniProt Q42656, sequence (whole entry, looked up): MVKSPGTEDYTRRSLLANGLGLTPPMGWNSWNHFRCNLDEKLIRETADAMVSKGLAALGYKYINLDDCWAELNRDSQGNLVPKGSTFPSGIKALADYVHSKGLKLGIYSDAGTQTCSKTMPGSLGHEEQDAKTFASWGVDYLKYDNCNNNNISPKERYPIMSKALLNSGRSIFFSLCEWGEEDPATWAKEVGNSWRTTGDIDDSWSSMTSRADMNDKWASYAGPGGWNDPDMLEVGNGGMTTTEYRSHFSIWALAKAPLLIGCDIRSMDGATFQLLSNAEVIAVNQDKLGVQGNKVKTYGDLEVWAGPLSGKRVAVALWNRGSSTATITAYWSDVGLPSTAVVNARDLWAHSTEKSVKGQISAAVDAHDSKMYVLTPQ
UniProt P23975, sequence (whole entry, looked up): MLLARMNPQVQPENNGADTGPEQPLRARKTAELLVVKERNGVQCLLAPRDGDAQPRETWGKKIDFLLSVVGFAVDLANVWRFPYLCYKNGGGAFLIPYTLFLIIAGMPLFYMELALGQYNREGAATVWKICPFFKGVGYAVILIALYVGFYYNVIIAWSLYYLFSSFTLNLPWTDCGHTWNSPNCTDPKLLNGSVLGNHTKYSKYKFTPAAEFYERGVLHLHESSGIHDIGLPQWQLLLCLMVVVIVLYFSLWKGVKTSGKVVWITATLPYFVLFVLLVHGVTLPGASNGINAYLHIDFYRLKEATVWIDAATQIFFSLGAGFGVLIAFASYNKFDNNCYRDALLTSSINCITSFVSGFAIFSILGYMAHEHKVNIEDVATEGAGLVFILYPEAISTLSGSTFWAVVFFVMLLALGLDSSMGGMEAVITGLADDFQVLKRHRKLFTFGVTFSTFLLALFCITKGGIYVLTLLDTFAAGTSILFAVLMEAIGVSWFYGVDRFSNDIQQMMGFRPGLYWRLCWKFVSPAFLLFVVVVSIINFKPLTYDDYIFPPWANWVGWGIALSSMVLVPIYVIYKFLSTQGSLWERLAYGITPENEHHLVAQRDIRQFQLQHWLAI
UniProt O24164, sequence (whole entry, looked up): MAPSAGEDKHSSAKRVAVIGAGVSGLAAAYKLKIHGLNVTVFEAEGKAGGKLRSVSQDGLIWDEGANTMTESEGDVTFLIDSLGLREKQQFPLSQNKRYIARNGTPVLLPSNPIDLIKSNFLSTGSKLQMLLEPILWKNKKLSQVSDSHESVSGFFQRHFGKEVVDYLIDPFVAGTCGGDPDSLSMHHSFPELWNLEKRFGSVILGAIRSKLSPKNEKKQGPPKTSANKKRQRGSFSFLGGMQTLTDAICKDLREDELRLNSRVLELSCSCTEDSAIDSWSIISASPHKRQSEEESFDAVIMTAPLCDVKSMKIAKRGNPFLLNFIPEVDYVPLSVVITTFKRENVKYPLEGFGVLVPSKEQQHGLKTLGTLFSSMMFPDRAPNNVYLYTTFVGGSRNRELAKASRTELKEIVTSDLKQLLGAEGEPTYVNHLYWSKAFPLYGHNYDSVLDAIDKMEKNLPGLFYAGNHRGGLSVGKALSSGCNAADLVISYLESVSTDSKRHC
UniProt P14902, sequence (whole entry, looked up): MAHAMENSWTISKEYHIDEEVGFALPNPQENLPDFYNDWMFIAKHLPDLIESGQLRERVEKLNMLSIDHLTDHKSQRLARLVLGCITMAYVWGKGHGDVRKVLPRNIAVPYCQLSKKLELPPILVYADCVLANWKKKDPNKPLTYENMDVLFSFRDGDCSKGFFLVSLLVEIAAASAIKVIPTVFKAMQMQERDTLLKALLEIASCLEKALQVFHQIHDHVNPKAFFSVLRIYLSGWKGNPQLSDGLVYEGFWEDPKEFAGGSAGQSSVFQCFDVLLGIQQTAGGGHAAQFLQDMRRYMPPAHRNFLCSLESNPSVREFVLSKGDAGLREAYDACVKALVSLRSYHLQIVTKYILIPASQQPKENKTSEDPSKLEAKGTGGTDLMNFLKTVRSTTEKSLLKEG
UniProt P23280, sequence (whole entry, looked up): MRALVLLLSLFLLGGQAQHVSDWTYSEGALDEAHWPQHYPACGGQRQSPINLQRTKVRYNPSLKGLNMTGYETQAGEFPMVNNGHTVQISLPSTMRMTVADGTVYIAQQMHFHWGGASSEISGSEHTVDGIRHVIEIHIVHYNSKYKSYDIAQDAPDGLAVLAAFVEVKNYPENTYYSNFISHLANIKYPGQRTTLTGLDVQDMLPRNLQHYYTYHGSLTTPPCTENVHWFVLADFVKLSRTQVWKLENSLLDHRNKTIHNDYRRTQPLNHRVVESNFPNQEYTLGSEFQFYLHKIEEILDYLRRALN

Structure (SMILES) = COC(=O)[C@@H](CS)N1C(=O)c2ccc(N(C)C)cc2C1=O; target or system = VIM-2 (Escherichia coli, UniProt Q5U7L7); assay = enzyme activity, inhibitor; conditions = Km 8 µM, added: chromacef 25 µM; quantity = Ki; result = 0.044 ± 0.007 µM
Structure (SMILES) = CCC(=O)NCCCCNC(=O)NCc1ccc(CNC(=O)[C@@H](CCCNC(=N)N)NC(=O)C(c2ccccc2)c2ccccc2)cc1; target or system = NPY1R; assay = ligand displacement, radioligand; conditions = cell membranes; quantity = Ki; result = 0.028 µM and 0.025 µM
Structure (SMILES) = COc1cc(CNC(=O)C[C@H](C)CCC=C(C)C)ccc1OCc1cn(-c2cccc(C(F)(F)F)c2)nn1; target or system = SW-620; assay = SRB; conditions = 10 µM, 48 h; quantity = growth percent; result = 38.7%
Structure (SMILES) = CN(C)CCN(Cc1ccncc1)Cc1c(Cl)cccc1Cl; target or system = SLC6A2 (Homo sapiens, UniProt P23975); assay = ligand displacement in cells, radioligand; quantity = Ki; result = 0.323 µM
Structure (SMILES) = COCCOc1cc2ncnc(Nc3cccc(-c4cn(-c5ccccc5S(N)(=O)=O)nn4)c3)c2cc1OCCOC; target or system = CA6 (Homo sapiens, UniProt P23280); assay = enzyme activity, inhibitor, stopped-flow; quantity = Ki; result = 0.0601 µM
Structure (SMILES) = O=C(Cc1ccccc1)Nc1ccccc1NC(=O)Cc1ccccc1; target or system = PPXII (Nicotiana tabacum, UniProt O24164); assay = enzyme activity, inhibitor, fluorescence; quantity = Ki; result = 2.21 µM
Structure (SMILES) = CC(C)C[C@H](NC(=O)[C@H](CCCNC(=N)N)NC(=O)[C@H](Cc1ccc(O)cc1)NC(=O)CCCCCCC(=O)N[C@@H](Cc1ccc(O)cc1)C(=O)N[C@@H](CCCNC(=N)N)C(=O)N[C@@H](CC(C)C)C(=O)NN(CCCNC(=N)N)C(=O)N[C@@H](Cc1ccc(O)cc1)C(N)=O)C(=O)NN(CCCNC(=N)N)C(=O)N[C@@H](Cc1ccc(O)cc1)C(N)=O; target or system = NPY1R; assay = ligand displacement, radioligand; quantity = Ki; result = 3.73 µM
Structure (SMILES) = CC(=O)N[C@@H](Cc1c[nH]c2ccccc12)C(=O)N[C@@H](CC(=O)O)C(=O)N[C@@H](CCCNC(=N)N)C(=O)N[C@@H](C)C(=O)N[C@H](C=O)CC(=O)O; target or system = Caspase-7 (CASP7, Homo sapiens, UniProt P55210); assay = enzyme activity, inhibitor, fluorescence; conditions = pH 7; quantity = Ki; result = 0.148 µM
Structure (SMILES) = CCN(CC)c1ccc(CNC(=O)[C@@H]2CC[C@@H]3CCN(C(=O)Cc4ccccc4)C[C@H](NC(=O)[C@H](C)NC)C(=O)N32)cc1; target or system = BIRC2 BIR3; assay = ligand displacement, FP; quantity = Ki; result = 0.148 µM
Structure (SMILES) = [64Cu+2].c1cnc(CNCc2ccc(CN3CCCN4CCNCCCN(CC4)CC3)cc2)nc1; target or system = CXCR4; system = NOD/SCID mouse, U87 and U87-stb-CXCR4 xenografts, stomach; conditions = iv, 90 min, ex vivo; quantity = tissue uptake; result = 2.98 ± 0.73 %ID/g
Structure (SMILES) = COc1cc(CNC(=O)C[C@H](C)CCC=C(C)C)ccc1OCc1cn(-c2cccc(Cl)c2)nn1; target or system = UACC-257 melanoma cells; assay = SRB; conditions = 10 µM, 48 h; quantity = growth percent; result = 72.1%
Structure (SMILES) = Cc1cc(O)c2c(c1)[C@H]([C@@H]1O[C@H](CO)[C@@H](O)[C@H](O)[C@H]1O)c1cccc(O)c1C2=O; target or system = IDO1 (Homo sapiens, UniProt P14902); assay = uncompetitive inhibitor, Lineweaver-Burk plot; quantity = Ki; result = 80.3 µM
Structure (SMILES) = O=C(Nc1cccc(-c2nn[nH]n2)c1)c1cc(-c2ncc[nH]2)cc(C(F)(F)F)c1; target or system = Beta-lactamase CTX-M-27; assay = enzyme activity, inhibitor, absorbance; conditions = pH 7; quantity = Ki; result = 4.04 µM
Structure (SMILES) = [64Cu+2].c1ccc(CNCc2ccc(CN3CCCN4CCNCCCN(CC4)CC3)cc2)nc1; target or system = CXCR4; system = NOD/SCID mouse, U87 and U87-stb-CXCR4 xenografts, stomach; conditions = iv, 60 min, ex vivo; quantity = tissue uptake; result = 2.13 ± 0.31 %ID/g
Structure (SMILES) = CCC[C@@H]1[C@H](O)[C@@H](O)[C@H](O)[C@@H](CO)N1C(=S)NCc1ccccc1; target or system = Alpha-galactosidase (Coffea arabica, UniProt Q42656); assay = enzyme activity, competitive inhibitor; conditions = green coffee bean enzyme, optimal pH, added: p-nitrophenyl glycopyranoside; quantity = Ki; result = > 2000 µM
Structure (SMILES) = CN[C@@H](C)C(=O)N[C@H]1CN(C(=O)Cc2ccccc2)CC[C@H]2CC[C@@H](C(=O)NCc3cccc(Br)c3)N2C1=O; target or system = BIRC2 BIR3; assay = ligand displacement, FP; quantity = Ki; result = 0.0222 µM
Structure (SMILES) = COCCOc1cc2ncnc(Nc3cccc(-c4cn(-c5ccc(S(N)(=O)=O)cc5)nn4)c3)c2cc1OCCOC; target or system = CA5A (Homo sapiens, UniProt P35218); assay = enzyme activity, inhibitor, stopped-flow; quantity = Ki; result = 0.0132 µM
Structure (SMILES) = O=C(Nc1cccc(-c2nn[nH]n2)c1)c1cc(-c2cccnc2)cc(C(F)(F)F)c1; target or system = Beta-lactamase CTX-M-27; assay = enzyme activity, inhibitor, absorbance; conditions = pH 7; quantity = Ki; result = 2.65 µM
Structure (SMILES) = CN[C@@H](C)C(=O)N[C@H]1CN(C(=O)Cc2ccccc2)CC[C@H]2CC[C@@H](C(=O)NCc3ccc(C(C)C)cc3)N2C1=O; target or system = BIRC2 BIR3; assay = ligand displacement, FP; quantity = Ki; result = 0.0865 µM

Repeated from above:
Structure (SMILES) = CCN(CC)c1ccc(CNC(=O)[C@@H]2CC[C@@H]3CCN(C(=O)Cc4ccccc4)C[C@H](NC(=O)[C@H](C)NC)C(=O)N32)cc1; target or system = BIRC2 BIR3; assay = ligand displacement, FP; quantity = Ki; result = 0.148 µM
Structure (SMILES) = O=C(Nc1cccc(-c2nn[nH]n2)c1)c1cc(-c2ncc[nH]2)cc(C(F)(F)F)c1; target or system = Beta-lactamase CTX-M-27; assay = enzyme activity, inhibitor, absorbance; conditions = pH 7; quantity = Ki; result = 4.04 µM
